Results from different studies.
Numbered parts are unrelated; each lists some results of a single study.

Series 1 — read-out: enzyme activity; action: inhibitor; concentration: 20 µM
Target: Replicase polyprotein 1ab, polymerase (rep, Severe acute respiratory syndrome coronavirus 2, UniProt P0DTD1)
Structure (SMILES)	inhibition [%]
COc1cc2c(cc1OC(C)C)[C@H](c1ccc(Cl)cc1)N(c1ccc(N(C)C[C@H]3CC[C@H](N4CCN(C)C(=O)C4)CC3)cc1)C(=O)C2	-2.87
CN(C)c1nc(N)c(C(=O)Nc2cccnc2)nc1Cl	10.3
c1ccc2c(c1)[I+]c1ccccc1-2	15.6
CC[C@@H]1C(=O)OC[C@@H]1Cc1cncn1C	17.6
CC(C)Cc1ccc(C(C)C(=O)NCCO)cc1 (centres unmarked)	6.33
Cc1[nH]c2ccccc2c1C[C@@H](NC(=O)[C@@H](N)Cc1c[nH]cn1)C(=O)N[C@@H](C)C(=O)N[C@@H](Cc1c[nH]c2ccccc12)C(=O)N[C@H](Cc1ccccc1)C(=O)N[C@@H](CCCCN)C(N)=O	4.78
N=C(N)N/N=C/c1c(Cl)cccc1Cl	12.6
CC(/C=C/C(=O)NO)=C\[C@@H](C)C(=O)c1ccc(N(C)C)cc1	-4.54
CCCCCCCCCCOc1cc2c(O)c(C(=O)OCC)cnc2cc1OCC	-7.52
CCn1c(N)c(C(=O)NC)c(=O)c2ccc(C#C[C@@](C)(O)COC)nc21	3.57
CC(C)(Sc1cc(C(C)(C)C)c(O)c(C(C)(C)C)c1)Sc1cc(C(C)(C)C)c(O)c(C(C)(C)C)c1	17.8
C[C@@H]1CC(=O)NN=C1c1ccc(NN=C(C#N)C#N)cc1	2.3
CCC1NC(=O)c2cc(S(N)(=O)=O)c(Cl)cc2N1 (centres unmarked)	-4.98
C[C@@]1(CO)[C@H](O)CC[C@@]2(C)[C@H]1CC[C@H]1C[C@@H]3C[C@@]12CC[C@]3(O)CO	-1.09
O=C(Nc1ccccc1)N1CCN(c2nc(-c3ccccc3)ns2)CC1	-3.03
CC[C@H](NC(=O)c1c(C)c(-c2ccccc2)nc2ccccc12)c1ccccc1	-2.01
CC(=C(CCO)SSCC1CCCO1)N(C=O)Cc1cnc(C)nc1N (stereo in doubt)	-0.5
COC1=C(OC)C(=O)C(C/C=C(\C)CC/C=C(\C)CC/C=C(\C)CC/C=C(\C)CC/C=C(\C)CC/C=C(\C)CC/C=C(\C)CC/C=C(\C)CC/C=C(\C)CCC=C(C)C)=C(C)C1=O	-1.73
Cc1ncc(CN2CC=C(c3ccccc3)CC2)c(N)n1	-4.29
OCCN(CCO)c1nc(N2CCCCC2)c2nc(N(CCO)CCO)nc(N3CCCCC3)c2n1	7.86
Cn1c(COc2ccc(CC3SC(=O)NC3=O)cc2)nc2ccccc2c1=O (centres unmarked)	-8.04
Oc1ccc2c3c1O[C@H]1c4[nH]c5c(c4C[C@@]4(O)[C@@H](C2)N(CC2CC2)CC[C@]314)C[C@@]1(O)[C@H]2Cc3ccc(O)c4c3[C@@]1(CCN2CC1CC1)[C@H]5O4	-3.36
CC(C)(C)c1cc(C(C)(C)C)c2c(c1)C(O)(C(F)(F)F)C(=O)O2 (racemic)	4.16
O=C(O)c1c2ccccc2cc2ccccc12	-0.96
NC(=O)CN1CCCC1=O	-0.74

Series 2 — method: universal PBM; form: double-stranded DNA, one strand shown; sample: in vitro; concentration: 600 nM; reading: higher = stronger binding
Target: Sal-like protein 4, full length isoform A (SALL4, Homo sapiens, UniProt Q9UJQ4, residues 1-1053)
Sequence of UniProt Q9UJQ4 (whole entry, looked up): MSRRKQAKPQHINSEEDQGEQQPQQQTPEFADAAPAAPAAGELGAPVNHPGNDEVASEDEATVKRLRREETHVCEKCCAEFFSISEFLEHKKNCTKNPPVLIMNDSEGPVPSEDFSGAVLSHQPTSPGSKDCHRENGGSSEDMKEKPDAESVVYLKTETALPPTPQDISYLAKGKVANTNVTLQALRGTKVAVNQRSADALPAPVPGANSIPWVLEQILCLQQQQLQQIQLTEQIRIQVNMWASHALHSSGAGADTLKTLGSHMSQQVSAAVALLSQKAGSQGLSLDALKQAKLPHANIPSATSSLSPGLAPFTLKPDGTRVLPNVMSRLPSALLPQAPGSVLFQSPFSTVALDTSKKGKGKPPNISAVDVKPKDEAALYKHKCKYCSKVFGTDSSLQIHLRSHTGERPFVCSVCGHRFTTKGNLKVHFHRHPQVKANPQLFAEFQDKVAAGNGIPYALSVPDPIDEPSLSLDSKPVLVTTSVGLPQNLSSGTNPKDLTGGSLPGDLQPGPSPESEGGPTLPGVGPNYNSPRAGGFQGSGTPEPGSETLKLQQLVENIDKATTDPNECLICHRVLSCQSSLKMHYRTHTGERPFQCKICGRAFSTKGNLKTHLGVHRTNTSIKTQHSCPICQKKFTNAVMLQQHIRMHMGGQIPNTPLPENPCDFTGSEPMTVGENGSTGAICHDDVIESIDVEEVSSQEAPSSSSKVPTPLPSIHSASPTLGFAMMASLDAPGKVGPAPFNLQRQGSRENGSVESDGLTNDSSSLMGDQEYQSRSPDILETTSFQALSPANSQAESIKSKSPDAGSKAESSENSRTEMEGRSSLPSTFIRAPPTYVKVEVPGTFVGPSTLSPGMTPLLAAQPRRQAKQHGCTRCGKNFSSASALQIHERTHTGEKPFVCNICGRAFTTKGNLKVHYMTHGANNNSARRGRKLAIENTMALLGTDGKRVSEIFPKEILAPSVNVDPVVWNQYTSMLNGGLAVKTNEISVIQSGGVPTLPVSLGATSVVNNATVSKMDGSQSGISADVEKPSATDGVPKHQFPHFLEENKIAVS
Setting: 8-mer, flanks averaged, mean of replicates
Oligonucleotide	E-score
ACAAGCAT	0.0946
CGGACTTA	-0.0272
ACTCTATA	0.24
ACAATGTA	0.184
CATGAGGA	0.0133
GCTCGGGA	-0.294
CGGGAGAA	-0.139
AGCCTGGG	-0.294

Series 3 — method: protein binding microarray; form: double-stranded DNA, one strand shown; sample: in vitro; concentration: not given; baseline: not given; reading: higher = stronger binding
Target: Histone acetyltransferase KAT6A, winged helix 1, GST fusion (KAT6A, Homo sapiens, UniProt Q92794, residues 1-85)
Setting: 8-mer, flanks averaged, mean of 2 arrays, mostly near background
Construct (chain): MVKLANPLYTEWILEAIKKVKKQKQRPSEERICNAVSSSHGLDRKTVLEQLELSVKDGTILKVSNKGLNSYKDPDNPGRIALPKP
Oligonucleotide	E-score
GTATTTTA	-0.146
GTAATTCA	-0.0315
GGCGGATA	0.362
AGACTACA	-0.0676
AGTAGGGA	-0.0685
CACTATCC	-0.0793
TGGCGGAA	0.144
AATGTCCC	0.0136

Series 4 — method: RNA Bind-n-Seq; form: RNA; sample: in vitro; concentration: 365 nM; baseline: no-protein control; reading: higher = stronger binding
Target: RNA binding protein fox-1 homolog 2, RRM domain, GST-SBP tag (RBFOX2, Homo sapiens, UniProt O43251-10, residues 100-194)
Setting: natural RNA segment, single round, ends assumed
Construct (chain): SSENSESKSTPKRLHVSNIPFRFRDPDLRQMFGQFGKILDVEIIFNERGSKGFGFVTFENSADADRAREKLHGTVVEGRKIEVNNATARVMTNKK
Oligonucleotide	RBNS enrichment (R)
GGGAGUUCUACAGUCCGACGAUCGCCCUGGUGACAGAGGAGACCCCGUCUCAAAAAUUGAUUGAUCAAUUCAGCAUCUGAGGGCUGCAAGUACAGAAGGAAUCUAUUCUCAGCAGGGCAUAGGGCACGCACUGUGGAAUUCUCGGGUGCCAA	0.846
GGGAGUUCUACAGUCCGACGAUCUUUUUUUUUUUCUUUUUGAGAUGGAGUCUCGCUCUGUUGCCCAGGUUGGAGUGCAGUGGCACGAUCUCGGCUCACUGCAACCUCACCUCCCGGGUUCAAGAGAUCCUCCUUGGAAUUCUCGGGUGCCAA	0.294
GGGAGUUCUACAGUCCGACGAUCUUGAGCUCCACCUCCUUUCCAAGUGAGCACUCAGUGUUGAAUCACAGUUACAACCCACUGGGGCUGGUGGGAGAUGCGUUGUAUGGGACUGGAAGCAAGAGGUUCAUUCAUGGAAUUCUCGGGUGCCAA	0.757
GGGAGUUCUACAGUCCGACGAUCGCCAUUUGAACUUUCGUAAGAGACCUCAGCAGUUAGACUGAGAAAAGUUAGAGUGCUGUAGUUAUGAAGUCAUACAUUUUUGAUAAAAUACCUGUGGAAAACCAGGGAUCUGGAAUUCUCGGGUGCCAA	0.477
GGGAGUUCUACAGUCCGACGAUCUGGGUCUCACUAUACAGAGCAGCCUGCCUCCCCACUGCUGGGAUUAAGCUGAGAAGCACCAAGUCUGACCACCCGUGUGUUGAUGACUUGCAGUCAAUUAACUAUGUGUGUGGAAUUCUCGGGUGCCAA	0.356
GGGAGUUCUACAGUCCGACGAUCCAUCUGCUUGGCUGACCCCACACCCAGGACCACUGUCCGGCUCUAACACAGCUAUUAAGUGCUACCUGCCUCUCAGGCACUCUCCUCGCCCAGUUUCUGAGGUCAGACGAUGGAAUUCUCGGGUGCCAA	0.349
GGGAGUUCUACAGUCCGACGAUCACUAUGAACCUUCUAAACAGUACCAACACUGUCAUGUGACUAAUGCUGCCUCUAGACCUCGCCCACGUGGACAGACGCUUCCUGUCAUGGCUCUGCCUAGAGAUGUUCCUUGGAAUUCUCGGGUGCCAA	0.237
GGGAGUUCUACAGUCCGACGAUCGCUGGAGUGCACUAGUCUUUUUGCUUAUUCAUUUUGCAUGGUUUUAAAAUUAAAAAUAAUUCCGAAGAUACACCAGCUCACAAAUGAAAACGUCAGCCUCUGCCCCACCCUGGAAUUCUCGGGUGCCAA	3.41

Other studies, line by line
Structure (SMILES)	cell line	assay	test system	setting	scale	measurement	value
CN(C)CCC(c1ccc(Cl)cc1)c1ccccn1 (centres unmarked)	HEK-293T	pseudovirus infection, FDA-approved drug library screen	VSV pseudotyped with SARS-CoV-2 spike	10 µM, 16 h	baseline: vehicle-treated	GFP-positive cells	74.8%

For quick reference, copied from above (series 2):
Oligonucleotide	E-score
GCTCGGGA	-0.294
CGGGAGAA	-0.139
AGCCTGGG	-0.294
